Measurements from different studies.
Every numbered part comes from another study and shows a few of its results, in no order.

Series 1
Target: RNA binding protein fox-1 homolog 2, RRM domain, GST-SBP tag (RBFOX2, Homo sapiens, UniProt O43251-10, residues 100-194)
Technique: RNA Bind-n-Seq
Molecule type: RNA
Matrix: in vitro
Tested at: 365 nM
Notes: natural RNA segment, single round, ends assumed
Relative to: no-protein control
Reading: higher = stronger binding
All sequences stand within: GGGAGUUCUACAGUCCGACGAUC … UGGAAUUCUCGGGUGCCAA
Target sequence (chain): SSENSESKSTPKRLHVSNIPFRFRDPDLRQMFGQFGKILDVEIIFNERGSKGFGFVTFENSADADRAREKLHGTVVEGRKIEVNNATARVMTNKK
Sequence | RBNS enrichment (R)
AACACCAUUUAAAAAGUCAUAUUUUUUCACAAAUAUAGAAAAUCAUUUUACAUAAGAAUUUUAAGUAUUUGCAAUAAAUAUAUGUAUAUAGAUUGUAUGUAUUCCUAUAU | 0.598
CCCCGGCCCCCCGCGCUCGCCCAGCAGGAGAGACUGAGCAGCCGCCAGCUGGGAGCACUGGUGUGAACUCACCCUGGGAGCCAGUCCUCCACUCGACCCAGAAUGGAGCC | 0.316
CAGGCCUUAGAGCCGAGGGAGACUAUUAGGCAGCAGGCCAAACCACUCUGGCCCUGGAGCCGCCUUUGUUAACAGCAACAAGAAUGCUGCAGUGCUACAACGUGCUGGAA | 0.423
UAGGCAAACAGGGGAAAGCUUAGAGGUCCUUCUAUAUGUGUUAAUAAGCUGUUUCUAAGUGUUUAAAUUUGAAAAGCAUCAUGUUCUCAUGAUUUAUGGGAAUGAAGCAA | 0.717
CUGAGUGUUCAAGUACAGUUUUACAGUGGCUAAGGUUGUCUCUUGAUCUUUUUUCUCCGUUGUGUGAUCACAGAUGCUAUUUCUGUUUUAUUGGUGAUUAUACGAGACUU | 0.294
AGGCACACUCUUUUUUCCUUUUUCCUUAGGUUCCCAAUAUUAUUUGGUGGAAACGUGGGCUUUCUCCAAACCAAGGCCUGAGUUUCCUGUAAGGGUCCUCUGUUUUUGAU | 0.313

Series 2
Target: Centromere-binding protein 1, full length, N-terminal tag (CBF1, Saccharomyces cerevisiae, UniProt P17106, residues 1-351)
Chain of UniProt P17106 (whole entry, looked up): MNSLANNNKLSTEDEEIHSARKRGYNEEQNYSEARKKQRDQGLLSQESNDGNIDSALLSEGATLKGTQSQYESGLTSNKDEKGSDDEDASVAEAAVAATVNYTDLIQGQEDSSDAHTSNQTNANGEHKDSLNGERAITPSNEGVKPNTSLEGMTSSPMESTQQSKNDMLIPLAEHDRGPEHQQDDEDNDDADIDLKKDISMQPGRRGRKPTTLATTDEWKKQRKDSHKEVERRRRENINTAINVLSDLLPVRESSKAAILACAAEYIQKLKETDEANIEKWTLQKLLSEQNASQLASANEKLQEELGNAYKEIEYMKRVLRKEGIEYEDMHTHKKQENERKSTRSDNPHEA
Technique: protein-binding microarray
Molecule type: double-stranded DNA, one strand shown
Matrix: in vitro
Tested at: 0.8 µM
Notes: whole 60-bp probe, no competitor
Reading: higher = stronger binding
All sequences stand within: … GTCTTGATTCGCTTGACGCTGCTG
Sequence | fluorescence intensity
GAACGTGATATACACCTGACCTATAATATTTCGTAG | 2610 a.u.
GAAACAGCGCGCGTATTCGTGCGTCGGTAAATTTAG | 473 a.u.
CTACCCTATACTATTCATGTGAGTGGTAGCATGTTC | 678 a.u.
GAAAGCGGTGAGCGTCACCCTAAAGAACACCGATAG | 491 a.u.
GAAAAGGTAATAGGGCACGGGAGGCCGTTGTTTTAG | 560 a.u.
GAACCGAATCTATGTCACGAAGTACATATATAATAG | 674 a.u.

Series 3
Target: Histone acetyltransferase KAT6A, winged helix 1, GST fusion (KAT6A, Homo sapiens, UniProt Q92794, residues 1-85)
Technique: protein binding microarray
Molecule type: double-stranded DNA, one strand shown
Matrix: in vitro
Tested at: not given
Notes: 8-mer, flanks averaged, mean of 2 arrays, mostly near background
Relative to: not given
Reading: higher = stronger binding
Target sequence (chain): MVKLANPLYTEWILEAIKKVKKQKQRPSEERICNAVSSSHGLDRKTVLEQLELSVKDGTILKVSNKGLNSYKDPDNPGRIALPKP
Sequence | E-score
GGAGTGCC | 0.105
CTTTTGTA | -0.186
ACGCTAGG | -0.0519
AAGTGCAC | -0.126
CCGCCTCC | 0.257
ATCGGTGA | -0.0322

Further values, each from its own experiment
Molecule | target | assay | system | conditions | scale | measurement | value
PhoQ, residues 284 288 289 292 302 303 SSYNSA | PhoP, residues 12 14 15 18 19 NQAHL (Escherichia coli, UniProt P23836) | Sort-seq, measured: YFP reporter | E. coli | PhoQ-PhoP variant library, together with: 10 µM Mg2+ | relative to: high Mg2+ state, higher = stronger signaling | fold induction | 1.08

Excerpt of the above (series 2):
Sequence | fluorescence intensity
GAAAAGGTAATAGGGCACGGGAGGCCGTTGTTTTAG | 560 a.u.
GAACCGAATCTATGTCACGAAGTACATATATAATAG | 674 a.u.
